Assay results collected from several papers.
Every numbered part comes from another study and shows a few of its results, in no order.

Study 1
Target: Fragile X messenger ribonucleoprotein 1, C-terminal low-complexity region (Fmr1, Mus musculus, UniProt P35922)
Technique: RNA Bind-n-Seq
Form: RNA
Medium: in vitro
Concentration: 200 nM
Setting: whole 134-nt RNA, ends assumed
Together with: 150 mM KCl
Relative to: input library
Direction: higher = stronger binding
Quantity: log2 enrichment
Constant ends, left off below: GGGAGUUCUACAGUCCGACGAUC … UGGAAUUCUCGGGUGUCAAGG
UCCUGUGCUACACAUCGUAUGUACCGAAUCGGGGCCCCCCGGGGCCCCCCGGCCCCCCGGAAAGUAUUAUGUUACGCCGUUCGGAUCUGC: -0.214
UGGGAGGUGGAUUUUGUUUAUUUUUUUAGCUCAUUUCCAGGGGUGGGAAUUUUUUUUUAAUAUGUGUCAUGAAUAAAGUUGUUUUUGAAC: 0.332
AAGUCCUGUGCUACACAUCGUAUGUACCGAAUCGGGGAAAAAGGGGAGGGGAGGGGAAAGUAUUAUGUUACGCCGUUCGGAUCUGCACUU: 0.57
UGGCCCUGGUGGCAUGCGAGGAGGAAGAGGUGGCCUCAUGGAUCGUGGUGGUCCCGGUGGAAUGUUCAGAGGUGGCCGUGGUGGAGACAG: 0.166
CCUCAAGUCCUGUGCUACACAUCGUAUGUACCGAAUCGGAGGAGGAAAAAGGAAAGUAUUAUGUUACGCCGUUCGGAUCUGCACUUCCAG: 0.186
AGUCCUGUGCUACACAUCGUAUGUACCGAAUCGGGAAAAAGGGAAAAAGGGAAAGGGAAAGUAUUAUGUUACGCCGUUCGGAUCUGCACU: -0.232
AGUUACUCAGUUCAUUUUGGAUAACUACAUUGAAAGAGGAAAAGGAUCUGCUUGCAGAAUAGUUUGUACUCAGCCAAGAAGAAUUAGUGC: -1.82
UCCUGUGCUACACAUCGUAUGUACCGAAUCGGGGUUUUUUGGGUUUUUUGGUUUUUUGGGAAAGUAUUAUGUUACGCCGUUCGGAUCUGC: 0.0014
CUGUGCUACACAUCGUAUGUACCGAAUCGGGAAAAAAGGGGAAAAAAGGGGAAAAAAGGGGAAAGUAUUAUGUUACGCCGUUCGGAUCUG: -0.343
ACCAUGCAGGUGGGCAUCUUUGGGAAGUGGGGCUAGGGGGGGAUAGGGAGGGGGGUAACACUUUGGGAACAGGUGGUCCCAGGUCGUUUC: 0.715
GUCCUGUGCUACACAUCGUAUGUACCGAAUCGGGAAAAAGGGUUUUUGGGAAAAAGGGAAAGUAUUAUGUUACGCCGUUCGGAUCUGCAC: -0.485
ACCAUGCAGGUGGGCAUCUUUGGGAAGUGGGGCCAGGGGGGGAUAGGGAGGGGGGUAACACUUUGGGAACAGGUGGUCCCAGGUCGUUUC: 0.941
GUCCUGUGCUACACAUCGUAUGUACCGAAUCGGGAAAAAAAGGGAGGGAAAAAAAGGGAAAGUAUUAUGUUACGCCGUUCGGAUCUGCAC: -0.145
CAAGUCCUGUGCUACACAUCGUAUGUACCGAAUCGGGAGGGUUUUUGGGUUUGGGAAAGUAUUAUGUUACGCCGUUCGGAUCUGCACUUC: 0.741

Study 2
Target: Interferon regulatory factor 3, full length, phosphomimetic (IRF3, Homo sapiens, UniProt Q14653, residues 1-427, S386D/S396D/S398D/S402D/T404D/S405D)
Technique: protein-binding microarray
Form: double-stranded DNA, one strand shown
Medium: in vitro
Concentration: 2540 nM top
Setting: 60-bp whole probe
Together with: salmon DNA 0.4 mg/ml
Relative to: random background probes
Direction: higher = stronger binding
Quantity: fitted relative affinity
Constant ends, left off below: GCCTAGCAC … GTCTTGATTCGCTTGACGCTGCTG
Construct (chain): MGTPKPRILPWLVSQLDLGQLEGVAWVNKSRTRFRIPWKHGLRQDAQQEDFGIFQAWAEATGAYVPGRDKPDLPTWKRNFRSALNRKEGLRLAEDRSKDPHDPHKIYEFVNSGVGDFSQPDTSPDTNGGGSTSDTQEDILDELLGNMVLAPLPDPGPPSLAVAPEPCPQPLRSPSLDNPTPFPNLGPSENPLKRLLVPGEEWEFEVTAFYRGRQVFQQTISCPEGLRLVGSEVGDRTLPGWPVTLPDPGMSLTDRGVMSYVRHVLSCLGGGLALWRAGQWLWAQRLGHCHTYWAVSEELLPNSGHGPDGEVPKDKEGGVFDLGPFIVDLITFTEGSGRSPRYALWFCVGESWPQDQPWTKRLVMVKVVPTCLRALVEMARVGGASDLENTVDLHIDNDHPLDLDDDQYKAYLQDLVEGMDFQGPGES
TTAGGTTTGCTTTCCCTTTAGTGCTAG: 5.08 z-score
GACGGTTTCGGGTTTCGGGAGGTGCTA: 5.7 z-score
GACGGTATCGAGACTGGGGACGTGCTA: 0.674 z-score
TTACGTATCGGTCTCGGTTAGTGCTAG: 4.36 z-score
GACTGTTTCCTTCTCCTGACGTGCTAG: 9.24 z-score
GACAGTATCGACTTTCGGGACGTGCTA: 1.45 z-score
TTAGAACTGAGTTTCGCTTAGTGCTAG: 1.96 z-score
GACGGTATCCTACCGCTGACGTGCTAG: 1.79 z-score
GACGGTCTCCTACTGCCGACGTGCTAG: 1.52 z-score
TTAGATTTCCGTTCCGATTAGTGCTAG: 5.31 z-score
GACGATATCGGTTTTCGAGACGTGCTA: 2.52 z-score
TTAGGTTCCCTTCTCCTTTAGTGCTAG: 8.03 z-score
GACGGTTTCGGGACCGGGGACGTGCTA: 4.23 z-score
CCTGAAATCTCTTTCCTTACGTGCTAG: 1.75 z-score
GACGGTCTCGGCATCGGGACGTGCTAG: -0.293 z-score
GACGGACTGGGGACTGGAGACGTGCTA: -0.785 z-score
TTAGATTTCAGTTTAGATTAGTGCTAG: 2.91 z-score
GACGGACTGCTTCTCTTGACGTGCTAG: -0.423 z-score
GACGATATCGGGCATCGAGACGTGCTA: -0.324 z-score
TCAGCCCTCCCTGTGGGACTGTGCTAG: -0.863 z-score
TTAGGCTTCCTTCTCCTTTAGTGCTAG: 1.75 z-score
TTAGAACTGAGTTTCGATTGGTGCTAG: 1.52 z-score
TTTGATTCCAGTTTCGATTAGTGCTAG: 4.25 z-score
CATCATTTTTCCCTCTGGAAGTGCTAG: 1.72 z-score

Study 3
Target: Histone acetyltransferase KAT6A, winged helix 2, GST fusion (KAT6A, Homo sapiens, UniProt Q92794, residues 85-181)
Technique: protein binding microarray
Form: double-stranded DNA, one strand shown
Medium: in vitro
Concentration: not given
Setting: 8-mer, flanks averaged, mean of 2 arrays, mostly near background
Relative to: not given
Direction: higher = stronger binding
Quantity: E-score
Target sequence (chain): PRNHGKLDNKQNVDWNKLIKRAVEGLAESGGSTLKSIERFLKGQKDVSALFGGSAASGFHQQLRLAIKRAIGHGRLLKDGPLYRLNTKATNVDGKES
GTACGACA: -0.0961
CCGAGAGG: 0.127
GGCTGACC: 0.124
GGCTCTAC: -0.127
AGTAGACA: 0.0691
ACCAGACG: 0.0286
CATTCACA: -0.111
CAGGCTCC: 0.0395
AAATATTG: 0.0122
CAAATGTG: 0.0454
AGGCGCAG: 0.15
ACTTCATG: -0.0985
ACATACGT: -0.244
CACCTGGG: 0.0932
CTCGGATC: 0.0774
CAACGAAG: 0.0563
AGTAGAGC: -0.107
AAGGGCAC: 0.0053
AATAGGCT: -0.0578
TACGAGAA: -0.0131
TGTCATAA: -0.119
CTGCACAA: 0.0308

Study 4
Target: RNA binding protein fox-1 homolog 2, RRM domain, GST-SBP tag (RBFOX2, Homo sapiens, UniProt O43251-10, residues 100-194)
Technique: RNA Bind-n-Seq
Form: RNA
Medium: in vitro
Concentration: 365 nM
Setting: natural RNA segment, single round, ends assumed
Relative to: no-protein control
Direction: higher = stronger binding
Quantity: RBNS enrichment (R)
Constant ends, left off below: GGGAGUUCUACAGUCCGACGAUC … UGGAAUUCUCGGGUGCCAA
Construct (chain): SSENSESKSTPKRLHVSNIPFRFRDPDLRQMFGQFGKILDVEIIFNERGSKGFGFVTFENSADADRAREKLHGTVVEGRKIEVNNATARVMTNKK
CUUAAAUUGCUUUAAUUGUCAUCAAUAAAAACAAAUAUGAAAAACCCUAGUUUAAAAAGCGGUUCAAGAAUAAUGUAAACUUAUACAUAUAGCUUAUUUUCUUCAUUUAC: 0.491
CAGAUGGUGUCUCAGAUGCUUUGGGGAAUCUUUAACAGCUGAAUUUGAGUCAGUCCUCUUAGGCUGCACCUCCAGCCUCUGCAGAUCCCCCCUCAUUUCCCAUGGAUGGU: 0.304
AACCUCCAGAGCAGUACUGUCACCUUUACUCACUGGGCAGAAAUAAAGACAUGUGCCAUAGACUUCCCAGAGUGGCUCUGAUUUGUUCAGGAGGUGGGGUGAAGACAGGC: 0.369
AAAACCAGAACCUGGCAAGGGACUCACUAGCCUGGAUGGCCCAUGGGAGACCAGGACAGAUGAGAAGGAGCAGAAGAGCCCUGUGCCCAGAAGACCCAACUGGUGCCAAG: 0.36
UGAUCUGCCUCUAAAAGCGUUGGAUGUAGCAUUAUGCAAUUAGGUUUUUCCUUAUUUGCUUCAUUGUACUACCUGUGUAUAUAGUUUUUACCUUUUAUGUAGCACAUAAA: 0.923
GACACCUUGAGUCUGGGUGAGUUGCUGCUGGCUGAGCCCUCCUGGCAGGCAGGGAGAGAAGACGCCUGGGCCUCUCCAUUGUUUGUUUCCCAGGGUGAUUUCCUCAGUGC: 1.36
AUUCAGACUAUUGUUGGCACUGUUUAGUAGUGACCACACGCUCUUCUACCCGGGAAGGAACAUAUGACGACAUGCUCCUCCCAUGUCCCCUGAUGGUGUCUGUUCCCACA: 0.38
AUCAGAAGUCCUAGACAGUGACAUUUCUUAAUGGUGGGAGUCCAGCUCAUGCAUUUCUGAUUAUACAAAACAGUUUGCAGUAGGUUAUUUGUCAUUUCAGUUUUUUACUG: 0.609
AUUUUGGUACAGUGUUUGUUUCCUAAUAUUUAUUAACCACCUUAUACCAAAUGUCUUGCAAAGAAAUGUUAUUAAAACCUUGAAUUUUUACAAAUGUAAAAAACAAAAAG: 1.5
GAGCUGGGCAAGAUUUUGGGUUUGCUGCUCCCUGAAGCUGGAUUCUUUCAUACGAUACUCUUUCUCAAGAAGGGGGCUCCCUGGGAUCUCCAGGUGUACUGCACUUACCC: 1.27
AAUACCAUUCCAGCCAAAGCUAAAACAGAAAUCCUCUCUAAAAAGAACAAAACAACCGAAACCAAACAAACAAAAAAAUACAAGCAUUCUGUGGUGGGUGGCAUAACAAU: 0.873
UAUAUUAAUUUUAAUUUGCUGCUAAGCAAAGACUAGGGACAGGCAAAGAUAAUUUAUGGCAAAGUGUUUAAAUUGUUUAUACAUAAAUAAAGUCUCUAAAACUCCUGUGG: 0.501

Repeated from above (study 2):
TTAGAACTGAGTTTCGCTTAGTGCTAG: 1.96 z-score
GACAGTATCGACTTTCGGGACGTGCTA: 1.45 z-score
GACGGACTGGGGACTGGAGACGTGCTA: -0.785 z-score
TCAGCCCTCCCTGTGGGACTGTGCTAG: -0.863 z-score
TTAGGTTTGCTTTCCCTTTAGTGCTAG: 5.08 z-score
GACGGTATCCTACCGCTGACGTGCTAG: 1.79 z-score
